Assay results gathered from unrelated publications.
Compare with care: the assays were run in different laboratories. Numbers after ± are the reported error.
Sequence of UniProt Q15046 (whole entry, looked up): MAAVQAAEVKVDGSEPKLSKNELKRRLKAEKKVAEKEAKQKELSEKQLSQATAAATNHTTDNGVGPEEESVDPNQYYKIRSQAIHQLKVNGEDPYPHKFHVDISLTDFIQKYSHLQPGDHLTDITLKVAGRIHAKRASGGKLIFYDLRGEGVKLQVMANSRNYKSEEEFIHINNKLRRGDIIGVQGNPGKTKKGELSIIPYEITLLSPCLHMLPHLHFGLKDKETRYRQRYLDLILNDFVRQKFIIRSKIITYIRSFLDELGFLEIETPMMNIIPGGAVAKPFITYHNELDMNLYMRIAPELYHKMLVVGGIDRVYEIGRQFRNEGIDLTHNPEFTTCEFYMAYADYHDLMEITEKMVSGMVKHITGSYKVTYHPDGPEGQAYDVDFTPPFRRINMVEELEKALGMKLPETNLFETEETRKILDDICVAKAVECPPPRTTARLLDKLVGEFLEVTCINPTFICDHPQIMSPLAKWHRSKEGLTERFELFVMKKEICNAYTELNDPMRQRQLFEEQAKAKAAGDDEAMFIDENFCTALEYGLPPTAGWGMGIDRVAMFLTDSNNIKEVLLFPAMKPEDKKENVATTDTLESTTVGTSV
Sequence of UniProt P47898 (whole entry, looked up): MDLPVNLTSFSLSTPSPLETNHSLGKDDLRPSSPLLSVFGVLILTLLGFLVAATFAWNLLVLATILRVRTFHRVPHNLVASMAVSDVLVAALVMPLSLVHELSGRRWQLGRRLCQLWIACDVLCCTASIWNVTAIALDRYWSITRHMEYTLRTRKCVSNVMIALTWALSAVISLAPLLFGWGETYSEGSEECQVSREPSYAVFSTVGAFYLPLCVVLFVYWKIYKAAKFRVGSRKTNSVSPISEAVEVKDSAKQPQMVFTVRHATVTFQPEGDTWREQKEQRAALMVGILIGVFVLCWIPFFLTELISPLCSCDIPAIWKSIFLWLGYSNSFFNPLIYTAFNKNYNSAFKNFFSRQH

Compound	tested on	test	system	setting	scale	measurement	value
CN1CC[C@@H](c2c(O)cc(O)c3c(=O)cc(-c4ccc(C(F)(F)F)cc4Cl)oc23)[C@@H]1CO	–	refers to: Anemia	AML	oral, 200 mg, intermittent dosing	–	patients with adverse event	30%
CC(C)Nc1ccnc(Nc2cccc(-c3cccnc3)c2)n1	–	refers to: albumin	mouse, blood	intraperitoneal, 5 mg/kg	–	blood chemistry	3.9 g/dL
O=C(O)CCCOc1ccc(F)cc1-c1cc(-c2ccccc2C(F)(F)F)n(-c2ccccc2)n1	–	–	Crl:CD(SD) rat, male, serum	intravenous, 25 µg/kg, 14 days post-dose	–	total protein	5.7 ± 0.28 g/dL
CC[C@H](C)[C@H](N)C(=O)N[C@@H](CCCNC(=N)N)C(=O)N[C@H](C(=O)N[C@@H](Cc1c[nH]c2ccccc12)C(=O)N[C@@H](Cc1c[nH]c2ccccc12)C(=O)N[C@@H](CCCCN)C(=O)N[C@H](C(=O)N[C@H](C(=O)N[C@@H](CCCNC(=N)N)C(=O)N[C@@H](CCCCN)C(=O)N[C@@H](Cc1c[nH]c2ccccc12)C(=O)N[C@@H](CCCCN)C(=O)N[C@@H](C)C(=O)N[C@H](C(=O)N[C@@H](Cc1c[nH]c2ccccc12)C(=O)N[C@@H](Cc1c[nH]cn1)C(N)=O)[C@@H](C)CC)C(C)C)[C@@H](C)CC)C(C)C	–	reversed-phase UPLC	C18 column, TFA	–	–	elution acetonitrile content	48.9%
CCCC[C@@H]1NC(=O)[C@H](Cc2ccc(O)cc2)NC(=O)[C@@H]2CCCN2C(=O)[C@H](CC(=O)O)NC(=O)[C@H](C)NC(=O)[C@H](Cc2ccccc2)NC(=O)[C@@H]2CSCCC(=O)N3CN(CN(C3)C(=O)CCSC[C@@H](C(N)=O)NC1=O)C(=O)CCSCCC(=O)N[C@@H](CC(C)(C)C)C(=O)N1CCC[C@H]1C(=O)N[C@@H](CCC(=O)O)C(=O)N[C@H](CCCCNC(=O)CCc1cn(CCOCCOCCOCCN(CCOCCOCCOCCC(=O)N[C@H]3CSCCC(=O)N4CN5CN(C4)C(=O)CCSC[C@H](NC(=O)[C@@H](CC(=O)O)NC(=O)[C@H](Cc4cccc6ccccc46)NC(=O)[C@@H]4CCCN4C3=O)C(=O)N[C@@H](CCSC)C(=O)N[C@@H](CCCCNC(=N)N)C(=O)N[C@@H](CC(=O)O)C(=O)N[C@@H](Cc3c[nH]c4ccccc34)C(=O)N[C@@H](CO)C(=O)N[C@@H]([C@@H](C)O)C(=O)N3CCC[C@H]3C(=O)N3C[C@H](O)C[C@H]3C(=O)N[C@@H](Cc3c[nH]c4ccccc34)C(=O)N[C@H](C(N)=O)CSCCC5=O)CCOCCOCCOCCn3cc(CCC(=O)NCCCC[C@H]4NC(=O)[C@H](CCC(=O)O)NC(=O)[C@@H]5CCCN5C(=O)[C@H](CC(C)(C)C)NC(=O)CCSCCC(=O)N5CN6CN(C5)C(=O)CCSC[C@H](NC(=O)[C@H](Cc5ccc(O)cc5)NC(=O)[C@@H]5CCCN5C4=O)C(=O)N[C@@H](Cc4ccccc4)C(=O)N[C@@H](C)C(=O)N[C@@H](CC(=O)O)C(=O)N4CCC[C@H]4C(=O)N[C@@H](Cc4ccc(O)cc4)C(=O)N[C@@H](CCCC)C(=O)N[C@H](C(N)=O)CSCCC6=O)nn3)nn1)C(=O)N1CCC[C@H]1C(=O)N[C@@H](Cc1ccc(O)cc1)C(=O)N2	–	–	Sprague-Dawley rat	–	–	unbound Vdss	54 L/kg
C=CC(=O)Nc1cc(Nc2nccc(Nc3cc(Cl)c(F)cc3C(C)(C)O)n2)c(OC)cc1N1CC[C@@H](N(C)C)C1	–	–	human patients	oral, 400 mg, treatment-emergent adverse events	–	patients with fatigue	35%
C[C@@H]1OC(=O)NN=C1c1ccc(-c2ccc(F)cc2)c(C(F)(F)F)c1	–	phase I trial, refers to: Presyncope all grades	human patients	10 mg loading then 0.5 mg daily	–	patients with adverse event	100%
COc1ncccc1-c1cnn2ccc(N3CCN(C(=O)OC(C)C)CC3)nc12	–	–	rat, thermal hyperalgesia model, brain	oral, 3 mg/kg, 180 min	–	drug concentration	1.01 µM
COc1cccc2c1CCCC2CCCN1CCN(C2CCCCC2)CC1 (centres unmarked)	–	–	CD-1 mouse, male, lung	intraperitoneal, 0.3 mg/kg	–	half-life	3.13 h
CC[C@H](C)CCCCC(=O)N[C@@H](CCN)C(=O)N[C@H](C(=O)N[C@@H](CCN)C(=O)N[C@H]1CCNC(=O)[C@H]([C@@H](C)O)NC(=O)[C@H](CCN)NC(=O)[C@H](CCN)NC(=O)[C@H](CC(C)C)NC(=O)[C@@H](Cc2ccccc2)NC(=O)[C@H](CCN)NC1=O)[C@@H](C)O	–	ultracentrifugation	human patients, plasma	intravenous, predose samples, median	–	unbound fraction	0.351
O=C(Nc1ccccc1)C1CCN(C(=O)Oc2cccnc2)CC1	–	adverse event reporting	healthy women	oral, 20 mg, 7 days	–	subjects with Hypoaesthesia adverse event	7.1%
CO[C@H]1C[C@@H]2CC[C@@H](C)[C@@](O)(O2)C(=O)C(=O)N2CCCC[C@H]2C(=O)O[C@H]([C@H](C)C[C@@H]2CC[C@@H](OC(=O)NCCOCCOCCOCCOCCOCCOCCOCCOCCC(=O)N3CCc4cc(Cn5nc(-c6ccc7oc(N)nc7c6)c6c(N)ncnc65)ccc4C3)[C@H](OC)C2)C[C@@H](O)[C@H](C)/C=C(\C)[C@@H](O)[C@@H](OC)C(=O)[C@H](C)C[C@H](C)/C=C/C=C/C=C/1C	–	–	patients with advanced solid tumours	intravenous, dose not given, any grade	–	incidence of Dyspnea TEAE	28.1%
CCS(=O)(=O)Nc1ccc(Oc2ccc(F)cc2F)c(-c2cn(C)c(=O)c3[nH]ccc23)c1	–	fatal fungal pneumonia	human, relapsed/refractory AML	oral, dose not given	–	treatment-emergent adverse events	5%
C[C@@H](c1nc(-c2ccc(C#N)cc2)cs1)[C@](O)(Cn1cncn1)c1cc(F)ccc1F	–	refers to: contact dermatitis	humans	oral, dose not given, added: midazolam	–	subjects with TEAEs	8.7%
C[C@]1(O)C[C@@](N)(c2ccc(-c3nc4n(c3-c3ccccc3)COc3ccncc3-4)cc2)C1	–	–	human, advanced or metastatic solid tumours	20 mg once daily, phase I dose escalation	–	patients with Hyperphosphatemia TEAE	50%
Cn1cncc1-c1c(F)cncc1NC(=O)c1c(N)nn2cc(F)cnc12	–	–	human patients	oral, dose not given, all doses	–	grade ≥3 creatinine increased	4%
COc1ccc2c(c[n+](C)c3c4cc5c(cc4ccc23)OCO5)c1OC	–	LC-MS/MS	rat, plasma	dose not given	–	MRT(0-t)	2.42 h
CCc1ccc(CC/C=C/c2ccc3c(c2)C(=O)CC3)cc1	–	–	Sprague-Dawley rat, male	oral, 450 mg/kg/day, 14 days	–	Reticulocyte percentage	6.91%
CCCCCOc1ccc(-c2ccc(-c3ccc(C(=O)N[C@H]4C[C@@H](O)[C@@H](OCC[N+](C)(C)C)NC(=O)[C@@H]5[C@@H](O)[C@@H](C)CN5C(=O)[C@H]([C@@H](C)O)NC(=O)[C@H]([C@H](O)[C@@H](O)c5ccc(O)cc5)NC(=O)[C@@H]5C[C@@H](O)CN5C(=O)[C@H]([C@@H](C)O)NC4=O)cc3)cc2)cc1	–	–	adult ICU patients, mITT, serum	dose not given, EOT	–	alkaline phosphatase	194 U/L
COc1cc2c(Oc3ccc4[nH]c(C)cc4c3F)ccnc2cc1OCC1(N)CC1	–	–	paediatric recurrent refractory sarcoma	8 mg/kg	–	grade 3 sinus arrhythmia	0%
COc1ccc(-c2c(-c3ccc(C#N)c(F)c3)nc(N3CCC(N)CC3)n(C)c2=O)cc1F	–	refers to: Leukopenia	human patients	oral, dose not given, any grade, dose escalation, NG	–	treatment-related adverse event incidence	0%

Compound	tested on	test	system	setting	scale	measurement	value
Nc1ccn([C@@H]2O[C@H](CO)[C@@H](O)C2(F)F)c(=O)n1	–	–	healthy tumour-free C57BL/6 mice	every 3 days	–	MTD	50 mg/kg
C[C@@H](NC(=O)N1C(=O)[C@H](Cc2ccnc(N)c2)[C@H]1C(=O)O)C1CCCCC1	–	–	healthy Chinese adult volunteers	continuous intravenous infusion, dose not given, 5.0 days, CTCAE 5.0, all doses	–	urine ketone body positive	2.5%
CC[C@H](C)[C@@H]1NC(=O)[C@@H]2CCCN2C(=O)[C@H](CC(C)C)NC(=O)[C@H](CC(C)C)NC(=O)CNC(=O)[C@@H](NC(=O)[C@@H](NC(=O)[C@H](CC(=O)O)NC(=O)CNC(=O)[C@@H](NC(=O)[C@H](C)NC(=O)CNC(=O)[C@H](CCCCN)NC(=O)[C@H](CC(C)C)NC(=O)[C@H](CC(C)C)NC(=O)[C@H](CCCCN)NC(=O)CNC(=O)[C@@H](NC(=O)[C@@H](N)CC(C)C)C(C)C)C(C)C)C(C)C)CSSC[C@@H](C(=O)O)NC1=O	–	RNA-seq, refers to: Lmnb1	mouse, traumatic brain injury model, frontal cortex and hippocampus	dose not given	baseline: TBI alone	log2 fold change	-1.55
O.O.O.O.O.O.[Cl-].[Cl-].[Co+2]	–	–	rat female, urine	oral, 10 mg/kg single, day 3	–	urinary cobalt creatinine-corrected	0.0357 µg/µmol creatinine
O[C@H]1CCCN[C@@H]1CCCn1cnc2c(Cl)c(Cl)ccc21	–	–	healthy humans, plasma	oral, 150 mg twice daily	–	AUCtau geometric LS mean	1090 ng·h/mL
C[C@@H]1COCCN1c1cc(-c2ccnn2C)c2ccnc(-c3ccn[nH]3)c2n1	–	–	female BALB/c mice	dose not given, 48 h, added: total body irradiation 6 Gy	baseline: irradiation alone	lymphocyte count	no effect
Cc1cccc(Cn2nc(C3CC3)c3c(NC(=O)c4cnc5cc(OCCN6CCN(C)CC6)ccn45)cccc32)n1	–	CTCAE v4.03, refers to: decreased appetite	pancreatic ductal adenocarcinoma patients	oral, dose not given, added: pembrolizumab IV every 3 weeks	–	all-cause adverse events	33.3%
CN1CCN(S(=O)(=O)c2cc([N+](=O)[O-])ccc2N(CCOS(C)(=O)=O)CCOS(C)(=O)=O)CC1	–	–	naive female NSG mice, plasma	intraperitoneal, 10 mg/kg	–	Cmax	5.06 µM
Cc1ccc(OS(=O)(=O)O)cc1	–	ultrafiltration	normal rat serum	37 °C	–	serum protein binding	95 ± 3%
C=CCNc1c(O)cc2c(O)c1C[C@@H](C)C[C@H](OC)[C@H](O)[C@@H](C)/C=C(\C)[C@H](OC(N)=O)[C@@H](OC)/C=C\C=C(/C)C(=O)N2	–	–	unresectable or metastatic STS, GIST, other	intravenous, 400 mg/m^2	–	patients with fatigue TEAE	72%
Clc1ccc(Cl)c(-c2cc(Cl)ccc2Cl)c1	–	–	Sprague Dawley rat, spleen	intraperitoneal, 10 mg/kg	–	organ weight	0.5 g
CC(C)(c1ccccc1)c1cc(-n2nc3ccccc3n2)c(O)c(C(C)(C)c2ccccc2)c1	–	exposure assessment	human, age 3-6 years	spray sunscreen	–	mean daily dermal uptake	11.8 ng/kg body weight/day
C[C@H]1CN(c2n[nH]c3nc(N[C@H]4CC[C@H](NS(=O)(=O)CCC(F)(F)F)CC4)ncc23)CCO1	Lysine--tRNA ligase (KARS1, Homo sapiens, UniProt Q15046)	Kinobeads competition, refers to: KARS	–	20 µM, unit not given	baseline: vehicle	remaining binding	1.15
C[C@H]1COCCN1c1nc(NCc2cccnc2C(F)(F)F)c2cccnc2n1	–	–	BALB/c mice	oral, 10 mg/kg	–	Cmax	16200 ng/mL
C[C@]1(CO)Cc2ncn(-c3ccc(C#N)c(Cl)c3)c2C(=O)O1	–	–	healthy humans	concentration not given, food-effect part total	–	drug-related Hyperhidrosis incidence	8.3%
COc1cc(Nc2ncc(F)c(Nc3ccc4c(n3)NC(=O)C(C)(C)O4)n2)cc(OC)c1OC	HTR5A (Homo sapiens, UniProt P47898)	–	–	–	–	IC50	> 10 µM
Clc1ccc(-c2ccccc2)cc1	–	–	Sprague-Dawley rat female, serum	inhalation, 35 µg/rat, 24 h	–	serum free thyroxine	35 ± 4 pmol/L
C=CC(=O)N1CC[C@H](n2nc(C#Cc3cc(OC)cc(OC)c3)c3c(N)ncnc32)C1	–	–	human patients, serum	oral, dose not given, QD, before phosphate binder start	–	serum phosphate	5.87 mg/dL
Oc1c(Cl)cc2c(c1Cl)Oc1cc(Cl)c(Cl)cc1O2	–	–	cow whole milk	100 nM	baseline: milk fat over skim milk	milk fat partition ratio	25.1
Cn1nccc1[C@]1(CNC(=O)c2ccc(F)c(F)c2-c2ccc(C(F)(F)F)cc2)NC(=O)NC1=O	–	–	dog	oral, 1.0 mg/kg	–	dose-normalised AUC	68 kg·h/L

Repeated from above:
Compound	tested on	test	system	setting	scale	measurement	value
CCS(=O)(=O)Nc1ccc(Oc2ccc(F)cc2F)c(-c2cn(C)c(=O)c3[nH]ccc23)c1	–	fatal fungal pneumonia	human, relapsed/refractory AML	oral, dose not given	–	treatment-emergent adverse events	5%
C[C@H]1COCCN1c1nc(NCc2cccnc2C(F)(F)F)c2cccnc2n1	–	–	BALB/c mice	oral, 10 mg/kg	–	Cmax	16200 ng/mL
O[C@H]1CCCN[C@@H]1CCCn1cnc2c(Cl)c(Cl)ccc21	–	–	healthy humans, plasma	oral, 150 mg twice daily	–	AUCtau geometric LS mean	1090 ng·h/mL
